Measurements of several laboratories.
Lines come from different studies, so protocols differ. Several values in a cell are separate wells, animals, samples, runs or records. Numbers after ± are the reported error.
ALB: Albumin (ALB, Homo sapiens, UniProt P02768)
Chain of UniProt Q13131 (whole entry, looked up): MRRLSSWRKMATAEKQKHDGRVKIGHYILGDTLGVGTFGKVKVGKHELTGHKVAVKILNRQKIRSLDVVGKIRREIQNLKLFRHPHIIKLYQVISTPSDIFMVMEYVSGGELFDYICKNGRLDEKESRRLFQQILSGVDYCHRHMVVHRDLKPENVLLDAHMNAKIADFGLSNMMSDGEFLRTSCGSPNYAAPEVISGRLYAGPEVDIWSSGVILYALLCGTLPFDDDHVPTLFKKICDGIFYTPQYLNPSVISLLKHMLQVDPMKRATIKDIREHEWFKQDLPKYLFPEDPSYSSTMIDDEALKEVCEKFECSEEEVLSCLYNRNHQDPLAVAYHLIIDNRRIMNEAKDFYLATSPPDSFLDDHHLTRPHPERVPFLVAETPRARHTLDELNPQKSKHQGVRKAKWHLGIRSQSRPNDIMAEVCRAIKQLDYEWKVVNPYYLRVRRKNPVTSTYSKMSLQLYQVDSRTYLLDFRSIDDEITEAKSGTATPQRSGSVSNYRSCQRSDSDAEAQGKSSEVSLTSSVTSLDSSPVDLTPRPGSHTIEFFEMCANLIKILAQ
Chain of UniProt P10635 (whole entry, looked up): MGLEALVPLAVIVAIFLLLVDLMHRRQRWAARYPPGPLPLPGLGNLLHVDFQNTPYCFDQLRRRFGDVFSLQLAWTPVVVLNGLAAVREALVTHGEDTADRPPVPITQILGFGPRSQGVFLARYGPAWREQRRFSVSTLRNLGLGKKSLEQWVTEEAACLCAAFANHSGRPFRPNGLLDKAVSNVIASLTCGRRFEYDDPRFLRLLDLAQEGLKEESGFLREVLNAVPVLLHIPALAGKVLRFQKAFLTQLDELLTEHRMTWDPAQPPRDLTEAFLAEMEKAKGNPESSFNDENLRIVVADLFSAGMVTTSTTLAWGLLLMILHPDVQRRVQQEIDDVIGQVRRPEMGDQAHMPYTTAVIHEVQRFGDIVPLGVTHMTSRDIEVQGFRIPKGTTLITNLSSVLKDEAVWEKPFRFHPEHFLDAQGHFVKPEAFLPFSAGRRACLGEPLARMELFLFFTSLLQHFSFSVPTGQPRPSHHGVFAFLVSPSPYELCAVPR
Chain of UniProt O94762 (whole entry, looked up): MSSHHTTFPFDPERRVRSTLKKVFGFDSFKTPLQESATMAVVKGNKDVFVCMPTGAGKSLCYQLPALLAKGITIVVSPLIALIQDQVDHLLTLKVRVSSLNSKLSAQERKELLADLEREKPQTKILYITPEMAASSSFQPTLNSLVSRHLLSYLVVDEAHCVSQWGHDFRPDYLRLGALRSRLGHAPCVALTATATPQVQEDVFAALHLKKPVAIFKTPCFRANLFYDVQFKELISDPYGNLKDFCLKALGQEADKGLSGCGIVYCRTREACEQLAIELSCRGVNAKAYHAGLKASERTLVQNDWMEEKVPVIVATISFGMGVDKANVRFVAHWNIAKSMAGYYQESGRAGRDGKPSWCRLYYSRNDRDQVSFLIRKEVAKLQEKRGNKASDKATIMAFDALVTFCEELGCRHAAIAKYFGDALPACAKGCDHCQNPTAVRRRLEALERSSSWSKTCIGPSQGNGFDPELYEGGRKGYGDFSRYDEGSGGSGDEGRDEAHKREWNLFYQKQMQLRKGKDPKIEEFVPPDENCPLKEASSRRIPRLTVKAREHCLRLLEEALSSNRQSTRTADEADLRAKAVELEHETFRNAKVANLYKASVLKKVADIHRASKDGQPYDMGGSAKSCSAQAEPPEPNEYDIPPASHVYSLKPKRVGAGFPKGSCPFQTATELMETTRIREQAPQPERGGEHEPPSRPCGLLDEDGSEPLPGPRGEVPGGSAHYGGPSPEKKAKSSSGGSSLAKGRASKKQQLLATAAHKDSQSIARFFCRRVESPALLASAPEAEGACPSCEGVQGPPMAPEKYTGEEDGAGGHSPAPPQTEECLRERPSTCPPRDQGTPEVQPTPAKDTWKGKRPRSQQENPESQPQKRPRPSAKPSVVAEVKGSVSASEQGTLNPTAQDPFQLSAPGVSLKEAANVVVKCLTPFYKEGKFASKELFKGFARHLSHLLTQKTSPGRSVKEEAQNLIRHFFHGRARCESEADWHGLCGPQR
Chain of UniProt Q9Y478 (whole entry, looked up): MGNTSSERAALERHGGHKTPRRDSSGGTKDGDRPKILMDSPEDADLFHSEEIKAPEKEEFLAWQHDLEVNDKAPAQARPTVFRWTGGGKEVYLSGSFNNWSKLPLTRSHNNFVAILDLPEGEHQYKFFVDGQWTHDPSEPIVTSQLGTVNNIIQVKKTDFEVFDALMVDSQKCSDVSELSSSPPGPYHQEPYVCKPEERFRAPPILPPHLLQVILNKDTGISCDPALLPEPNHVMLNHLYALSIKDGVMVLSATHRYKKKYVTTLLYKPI
Chain of UniProt P54619 (whole entry, looked up): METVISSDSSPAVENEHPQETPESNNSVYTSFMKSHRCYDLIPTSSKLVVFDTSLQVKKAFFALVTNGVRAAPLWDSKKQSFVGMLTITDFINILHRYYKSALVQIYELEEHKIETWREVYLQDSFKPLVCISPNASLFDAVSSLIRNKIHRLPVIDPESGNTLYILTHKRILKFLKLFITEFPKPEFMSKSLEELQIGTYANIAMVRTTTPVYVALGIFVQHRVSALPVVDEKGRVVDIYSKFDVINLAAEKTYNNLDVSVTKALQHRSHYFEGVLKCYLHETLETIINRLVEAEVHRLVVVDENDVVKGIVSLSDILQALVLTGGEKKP

SMILES	target or system	test	test system	conditions	scale	measurement	result
O=C(Nc1cnccc1-c1ccc([18F])cc1)c1ccnc(NC(=O)C2CC2)c1	–	ex vivo gamma counting	FVB/NJ mice, both sexes, right kidney	intravenous, 120 min	–	mean SUV	0.49
CC(C)OCCOCc1ccc(OCC(O)CN(N=O)C(C)C)cc1 (stereo not shown)	Salmonella typhimurium	Ames test	TA1535	5000 µg/plate, 30 % hamster S9	baseline: solvent control	revertant fold increase	16.6 fold
COc1ccccc1-c1ccncc1C(=O)Nc1nnc(OCc2ccc(Cl)cc2)s1	RECQL5 (Homo sapiens, UniProt O94762)	ATPase activity, ADP-Glo	–	0.24 µM, 1 h	–	remaining activity	104%
Cc1ncsc1-c1ccc(C(C)NC(=O)C2CC(O)CN2C(=O)C(NC(=O)CCCCCCCCCCN2CCCC(Nc3ncc(Cl)c(Nc4ccccc4S(=O)(=O)C(C)C)n3)C2)C(C)(C)C)cc1 (stereo not shown)	22Rv1	RNA-seq, refers to: ZNF223 mRNA	–	concentration not given	baseline: DMSO	log2 fold change	-2.47
CN(C)c1ccc2c(c1)[Si](C)(C)c1cc(N(C)C)ccc1C21OC(=O)c2ccc(C(=O)O)cc21	ALB	binding, fluorescence titration	PBS	–	–	Kd	84 ± 9 µM
CC(C)Cc1ccc(C(C)C(=O)N[C@@H](CCCCNC(=O)CCOCCOCCOCCOCCOCCOCCNC(=O)CN2CCN(CC(=O)[O-])CCN(CC(=O)[O-])CCN(CC(=O)[O-])CC2)C(=O)Nc2cccc3c(C(=O)NCC(=O)N4CC(F)(F)C[C@H]4C#N)ccnc23)cc1.[177Lu+3] (stereo partly shown)	U-87 MG tumour model	–	host not given, bone	4 h, tumour-bearing	–	tracer uptake	7.24 %ID/g
C=C(NC(=O)c1csc(-c2nc3c(cc2O)-c2nc(cs2)C(=O)NC(C(C)O)C(=O)NC(=C(C)OC)c2nc(cs2)C(=O)NC2c4nc(cs4)C(=O)NC(COC(=O)c4c5c6c(cccc6n4O)COC(=O)C(OC4CC(C)(O)C(N(C)C)C(C)O4)C2OC5)c2nc-3cs2)n1)C(N)=O (stereo not shown)	–	–	Sprague-Dawley rat, male, plasma	intravenous infusion, 6 mg/kg, multiple doses, day 1	–	MRT(0-last)	1.66 h
CNC(=O)C1CCCN(C(=O)C2CC3CCC2N3C(=O)[C@@H]2C[C@@H](O)CN2C(=O)NCc2cccc(Cl)c2F)C1 (mixture of isomers)	Cytochrome P450 2D6 (CYP2D6, Homo sapiens, UniProt P10635)	enzyme activity, inhibitor, time-dependent inhibition	–	5.56 µM, preincubated without NADPH	–	dextrorphan formation	150 ng/mL
COc1cccc(OC)c1-c1cc(C(=O)NC2(C(=O)O)C3CC4CC(C3)CC2C4)nn1-c1ccc(C(=O)N(C)CCOCCN(C)C(=O)[C@H](CCCCNC(=O)[C@H](CC(C)C)NC(=O)C2OC2C(=O)O)NC(=O)CN2CCN(CC(=O)[O-])CCN(CC(=O)[O-])CCN(CC(=O)[O-])CC2)cc1C(C)C.[177Lu+3] (mixture of isomers)	HT-29 tumour model	–	host not given, pancreas	7 days, tumour-bearing	–	tracer uptake	0.04 %ID/g
CN1CCN(c2ccc3[nH]c(-c4ccc5[nH]c(-c6ccc(OCCCCNC(=O)c7cccc8c7C(=O)OC87c8ccc(N(C)C)cc8[Si](C)(C)c8cc(N(C)C)ccc87)cc6)nc5c4)nc3c2)CC1	ALB	–	PBS	1 µM, 1 h, together with: 25 mg/mL albumin	–	fluorescence quantum yield	0.003 ± 0.004
O=C1C2CC3CC1CC(C(=O)N1CCN(c4ccc([N+](=O)[O-])c5ncccc45)CC1)(C3)C2	Salmonella typhimurium	Ames test	TA100	0.02 µg/well, with S9	–	mean revertant colonies	29 colonies/well
CCCC[C@H](NC(=O)COCCOCCNC(=O)CN1CCN(CC(=O)O)CCN(CC(=O)O)CC1)C(=O)N[C@H]1CC(=O)NCCCC[C@@H](C(N)=O)NC(=O)[C@H](Cc2c[nH]c3ccccc23)NC(=O)[C@H](CCCNC(=N)N)NC(=O)[C@@H](Cc2ccccc2)NC(=O)[C@H](Cc2c[nH]cn2)NC1=O [technetium-99m labelled]	–	–	C57 mouse, blood	intravenous, 0.037 MBq, 24 h	–	tissue uptake	0.08 ± 0.03 %ID/g
O=C1NC2(CC2)COc2ncc(F)cc2[C@H]2COCCN2c2ccn3ncc1c3n2	Salmonella typhimurium	Ames test	TA100	150 µg/plate, 48 h, together with: rat liver S9	–	revertant colonies	79 ± 5 revertants/plate
COC(=O)Nc1nc2cc(C(O)c3ccc(F)cc3)ccc2[nH]1 (stereo not shown)	Salmonella typhimurium	Ames preincubation test	TA100	54.7 µg/plate, without S9	–	revertants	134 revertants/plate
Cc1nc(Nc2ncc(C(=O)Nc3c(C)cccc3Cl)s2)cc(N2CCN(C(=O)CCOCCNC(=O)CN)CC2)n1	K562	cell growth or viability, CCK-8	–	2.5 nM	–	viability	83% and 79%
CCN(CC)CC#CCNc1ccnc2cc(Cl)ccc12	Salmonella typhimurium	mini-Ames test	TA97a	62.5 µg/well, without S9	–	revertants	13 revertants/well and 10 revertants/well

SMILES	target or system	test	test system	conditions	scale	measurement	result
N[C@@H](CNC(=O)N[C@@H](CS)C(=O)NCC(=O)O)C(=O)O	RPMI-2650	–	–	A-to-B, air-liquid interface	–	apparent permeability	35.3 ×10⁻⁶ cm/s
COC1CN([C@H]2CC[C@H]([C@@]3(C)Oc4c(Cl)cc(C(=O)NCc5c(SC)cc(C)[nH]c5=O)c(C)c4O3)CC2)C1	–	RNA-seq, refers to: PCGF2 mouse homolog	mouse, HT-1376 xenograft, whole blood	dose not given	baseline: vehicle	log2 fold change	0.736
N#C[C@@H]1CC(F)(F)CN1C(=O)CNC(=O)c1ccnc2c(NC(=O)[C@@H](N)CCCCNC(=O)CCOCCOCCOCCOCCOCCOCCNC(=O)CN3CCN(CC(=O)[O-])CCN(CC(=O)[O-])CCN(CC(=O)[O-])CC3)cccc12.[177Lu+3]	U-87 MG tumour model	–	host not given, bone	48 h, tumour-bearing	–	tracer uptake	0.28 %ID/g
COc1cccc(OC)c1-c1cc(C(=O)NC2(C(=O)O)C3CC4CC(C3)CC2C4)nn1-c1ccc(C(=O)N(C)CCOCCOCCN(C)C(=O)[C@H](CCCCNC(=O)[C@H](CC(C)C)NC(=O)C2OC2C(=O)O)NC(=O)CN2CCN(CC(=O)[O-])CCN(CC(=O)[O-])CCN(CC(=O)[O-])CC2)cc1C(C)C.[177Lu+3] (mixture of isomers)	HT-29 tumour model	–	host not given, bone	24 h, tumour-bearing	–	tracer uptake	0.8 %ID/g
CCc1c(-c2ccc3[nH]ncc3c2)cnc(N)c1-c1ccc(O)cc1	CHP-212 resistant sublines (heterozygous USP7 V517F)	cell viability	–	3.125 µM	–	viability	106% and 107%
Nc1ncc(-c2cc(-c3cnn(CC(F)(F)F)c3)ncc2F)nc1C(=O)NC1CNCC(F)C1 (stereo not shown)	p38-delta	KINOMEscan competition binding	–	1 µM	baseline: DMSO control	remaining binding	98%
O=C(Oc1cc(OC(=O)c2cc(O)c(O)c(O)c2)c2ccccc2c1)c1cc(O)c(O)c(O)c1	HSV-2 strain 333	viral DNA replication, qPCR	BEAS-2B	–	baseline: CC50 over IC50	therapeutic index	37
CC(C)C[C@H](NC(=O)[C@@H](CCCCNC(=O)[C@@H](Cc1ccccc1)NC(=O)CCCCCNC(=O)CN1CCN(CC(=O)O)CCN(CC(=O)O)CCN(CC(=O)O)CC1)NC(=O)[C@H](Cc1ccc(O)cc1)NC(=O)[C@H](CO)NC(=O)[C@H](Cc1c[nH]c2ccccc12)NC(=O)[C@H](Cc1c[nH]cn1)NC(=O)[C@@H]1CCC(=O)N1)C(=O)N[C@@H](CCCNC(=N)N)C(=O)N1CCC[C@H]1C(=O)NCC(N)=O [indium-111 labelled]	–	–	athymic nude mouse, female, pituitary	intravenous, 0.037 MBq, 2 h	–	tissue uptake	38.6 ± 7.96 %ID/g
Cc1nn(-c2cccc(N)c2)c(=O)c2cnc(Nc3ccc(N4CCNCC4)cc3)nc12	AMP-activated protein kinase (AMPK) alpha-1/beta-1/gamma-1 (PRKAG1/PRKAA1/PRKAB1, Homo sapiens, UniProt P54619+Q13131+Q9Y478)	enzyme activity, inhibitor	–	–	–	IC50	1.52 µM
N#C[C@@H]1CC(F)(F)CN1C(=O)CNC(=O)c1ccnc2c(NC(=O)[C@H](CCCCNC(=O)CCOCCOCCOCCOCCOCCOCCNC(=O)CN3CCN(CC(=O)[O-])CCN(CC(=O)[O-])CCN(CC(=O)[O-])CC3)NC(=O)CCCc3ccc(I)cc3)cccc12.[177Lu+3]	U-87 MG tumour model	–	host not given, muscle	4 h, tumour-bearing	–	tracer uptake	1.07 %ID/g
N#C[C@@H]1CCCN1C(=O)CNC(=O)c1ccnc2ccc(OCCCN3CCN(C(=O)CCc4ccc5c(c4)CN4CCN(Cc6cc(CCC(=O)O)ccc6O)CC(=O)[O][Al-]([18F])([O]C(=O)C4)[O]5)CC3)cc12 (stereo partly shown)	U-87 MG tumour model	–	host not given, blood	2 h, tumour-bearing	–	tracer uptake	1.14 %ID/g
C=CC(=O)Nc1cccc(Cn2ncc3cnc(Nc4cnn(CCOC)c4)nc32)c1	SRC human	binding, KINOMEscan	–	100 nM	lower = stronger binding	percent of control	26%
Cc1nc(N)nc2c1C(=O)N[C@@H](c1ccc(F)cc1-c1cccc(O[11CH3])n1)C2	–	radioligand, ex vivo biodistribution	healthy mouse, white blood cells	60 min p.i.	–	SUV	4.7 ± 1.6
C=C1CC[C@H](OCCCNC(=O)CCOCCOCCOCCOCCOCCOCCOCCOCCOCCOCCOCCOCCOCCOCCOCCOCCOCCOCCOCCOCCOCCOCCOCCOCCOCCOCCOCCOCCOCCOCCOCCOCCOCCOCCOCCOCCNC(=O)CCN2C(=O)CC(SC[C@H](NC(=O)[C@H](Cc3ccccc3)NC(=O)[C@H](CC(N)=O)NC(=O)[C@H](Cc3c[nH]cn3)NC(=O)[C@@H](NC(=O)[C@H](CC(=O)O)NC(=O)[C@H](CCC(N)=O)NC(=O)[C@H](CC(C)C)NC(=O)[C@H](CCCCN)NC(=O)[C@H](CCCCN)NC(=O)[C@H](CCCNC(=N)N)NC(=O)[C@H](CC(C)C)NC(=O)[C@H](Cc3c[nH]c4ccccc34)NC(=O)[C@H](CCC(=O)O)NC(=O)[C@@H](NC(=O)[C@H](CCCNC(=N)N)NC(=O)[C@H](CCC(=O)O)NC(=O)[C@H](CCSC)NC(=O)[C@H](CO)NC(=O)[C@H](CC(N)=O)NC(=O)[C@H](CC(C)C)NC(=O)[C@H](Cc3c[nH]cn3)NC(=O)[C@H](CCCCN)NC(=O)CNC(=O)[C@H](CC(C)C)NC(=O)[C@H](CC(N)=O)NC(=O)[C@H](Cc3c[nH]cn3)NC(=O)[C@H](CCSC)NC(=O)[C@H](CC(C)C)NC(=O)[C@H](CCC(N)=O)NC(=O)[C@@H](NC(=O)[C@H](CCC(=O)O)NC(=O)[C@H](CO)NC(=O)[C@@H](NC(=O)[C@@H](N)CO)C(C)C)[C@@H](C)CC)C(C)C)C(C)C)C(=O)O)C2=O)C/C1=C/C=C1\CCC[C@]2(C)[C@@H]([C@H](C)CCCC(C)(C)O)CC[C@@H]12 (stereo partly shown)	–	–	male cynomolgus monkey, plasma	subcutaneous, 0.007 mg/kg, single dose	–	bioavailability	44.5%
CC(C)C[C@H](NC(=O)[C@H](Cc1ccc(O)cc1)NC(=O)[C@@H](CCCNC(=N)N)NC(=O)[C@@H](CO)NC(=O)[C@H](Cc1ccccc1)NC(=O)[C@H](CC1CCCCC1)NC(=O)[C@H](CC(=O)O)NC(=O)CN1CCN(CC(=O)O)CCN(CC(=O)O)CCN(CC(=O)O)CC1)C(=O)N[C@@H](Cc1c[nH]c2ccccc12)C(=O)N[C@@H](CO)C(=O)O [copper-64 labelled]	–	–	human, stomach contents	concentration not given, 3 h	–	activity concentration	559 Bq/mL and 939 Bq/mL and 1090 Bq/mL and 442 Bq/mL and 138 Bq/mL and 395 Bq/mL

Excerpt of the above:
SMILES	target or system	test	test system	conditions	scale	measurement	result
Cc1nc(N)nc2c1C(=O)N[C@@H](c1ccc(F)cc1-c1cccc(O[11CH3])n1)C2	–	radioligand, ex vivo biodistribution	healthy mouse, white blood cells	60 min p.i.	–	SUV	4.7 ± 1.6
CC(C)C[C@H](NC(=O)[C@@H](CCCCNC(=O)[C@@H](Cc1ccccc1)NC(=O)CCCCCNC(=O)CN1CCN(CC(=O)O)CCN(CC(=O)O)CCN(CC(=O)O)CC1)NC(=O)[C@H](Cc1ccc(O)cc1)NC(=O)[C@H](CO)NC(=O)[C@H](Cc1c[nH]c2ccccc12)NC(=O)[C@H](Cc1c[nH]cn1)NC(=O)[C@@H]1CCC(=O)N1)C(=O)N[C@@H](CCCNC(=N)N)C(=O)N1CCC[C@H]1C(=O)NCC(N)=O [indium-111 labelled]	–	–	athymic nude mouse, female, pituitary	intravenous, 0.037 MBq, 2 h	–	tissue uptake	38.6 ± 7.96 %ID/g
